Published values from different studies.
A part holds a random share of what one study measured.
Chain of UniProt O75716 (whole entry, looked up): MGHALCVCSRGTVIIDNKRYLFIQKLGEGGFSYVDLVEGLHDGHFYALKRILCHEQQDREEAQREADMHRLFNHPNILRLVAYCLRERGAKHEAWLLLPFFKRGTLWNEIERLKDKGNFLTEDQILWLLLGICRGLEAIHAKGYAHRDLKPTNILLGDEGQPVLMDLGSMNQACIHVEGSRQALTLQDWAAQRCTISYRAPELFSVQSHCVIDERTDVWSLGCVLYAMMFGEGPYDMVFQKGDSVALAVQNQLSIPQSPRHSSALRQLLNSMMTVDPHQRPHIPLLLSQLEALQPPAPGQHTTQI
Chain of UniProt Q9Y5S2 (whole entry, looked up): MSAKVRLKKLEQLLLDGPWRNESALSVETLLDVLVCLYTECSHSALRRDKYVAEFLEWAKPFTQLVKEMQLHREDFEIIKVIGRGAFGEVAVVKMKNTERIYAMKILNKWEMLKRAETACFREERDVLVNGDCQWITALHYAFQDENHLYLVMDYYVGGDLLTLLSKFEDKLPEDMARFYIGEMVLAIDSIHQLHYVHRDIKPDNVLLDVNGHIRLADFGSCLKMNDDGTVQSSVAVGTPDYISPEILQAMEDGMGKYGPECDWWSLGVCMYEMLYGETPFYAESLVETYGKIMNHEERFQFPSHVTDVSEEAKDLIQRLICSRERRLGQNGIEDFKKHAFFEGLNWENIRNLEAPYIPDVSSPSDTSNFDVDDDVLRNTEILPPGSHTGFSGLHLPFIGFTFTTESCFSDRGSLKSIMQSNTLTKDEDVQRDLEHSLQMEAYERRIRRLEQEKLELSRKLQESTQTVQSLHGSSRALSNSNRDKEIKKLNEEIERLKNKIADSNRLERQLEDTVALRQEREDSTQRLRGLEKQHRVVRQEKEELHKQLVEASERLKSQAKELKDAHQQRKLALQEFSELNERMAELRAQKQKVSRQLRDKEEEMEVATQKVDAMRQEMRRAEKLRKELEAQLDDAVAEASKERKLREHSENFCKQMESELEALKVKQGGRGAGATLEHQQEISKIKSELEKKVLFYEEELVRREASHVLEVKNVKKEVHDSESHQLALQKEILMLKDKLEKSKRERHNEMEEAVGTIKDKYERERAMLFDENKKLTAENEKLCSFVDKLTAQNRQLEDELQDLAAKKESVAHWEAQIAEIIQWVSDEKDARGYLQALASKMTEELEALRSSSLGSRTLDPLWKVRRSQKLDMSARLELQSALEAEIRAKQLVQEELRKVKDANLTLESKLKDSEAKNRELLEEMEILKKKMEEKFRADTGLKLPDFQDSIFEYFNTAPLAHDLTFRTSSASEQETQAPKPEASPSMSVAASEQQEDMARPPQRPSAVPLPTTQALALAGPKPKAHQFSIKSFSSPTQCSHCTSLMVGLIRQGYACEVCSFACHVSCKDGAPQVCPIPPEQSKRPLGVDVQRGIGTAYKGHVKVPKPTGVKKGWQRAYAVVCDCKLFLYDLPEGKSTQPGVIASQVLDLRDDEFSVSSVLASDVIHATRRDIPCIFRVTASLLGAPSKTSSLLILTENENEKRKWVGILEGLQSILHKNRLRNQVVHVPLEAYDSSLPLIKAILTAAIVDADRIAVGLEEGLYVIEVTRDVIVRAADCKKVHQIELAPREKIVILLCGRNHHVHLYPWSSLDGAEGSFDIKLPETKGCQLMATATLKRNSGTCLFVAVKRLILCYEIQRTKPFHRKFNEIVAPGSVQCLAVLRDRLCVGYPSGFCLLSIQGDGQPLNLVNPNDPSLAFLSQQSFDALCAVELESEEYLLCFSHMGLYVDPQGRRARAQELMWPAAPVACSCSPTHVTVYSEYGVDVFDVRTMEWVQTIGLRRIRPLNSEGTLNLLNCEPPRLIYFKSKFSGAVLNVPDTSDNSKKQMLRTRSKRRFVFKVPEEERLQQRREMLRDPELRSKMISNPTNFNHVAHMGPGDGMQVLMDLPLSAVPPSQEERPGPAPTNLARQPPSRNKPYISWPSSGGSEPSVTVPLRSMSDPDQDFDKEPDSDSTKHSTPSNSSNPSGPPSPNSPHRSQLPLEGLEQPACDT
Chain of UniProt P36896 (whole entry, looked up): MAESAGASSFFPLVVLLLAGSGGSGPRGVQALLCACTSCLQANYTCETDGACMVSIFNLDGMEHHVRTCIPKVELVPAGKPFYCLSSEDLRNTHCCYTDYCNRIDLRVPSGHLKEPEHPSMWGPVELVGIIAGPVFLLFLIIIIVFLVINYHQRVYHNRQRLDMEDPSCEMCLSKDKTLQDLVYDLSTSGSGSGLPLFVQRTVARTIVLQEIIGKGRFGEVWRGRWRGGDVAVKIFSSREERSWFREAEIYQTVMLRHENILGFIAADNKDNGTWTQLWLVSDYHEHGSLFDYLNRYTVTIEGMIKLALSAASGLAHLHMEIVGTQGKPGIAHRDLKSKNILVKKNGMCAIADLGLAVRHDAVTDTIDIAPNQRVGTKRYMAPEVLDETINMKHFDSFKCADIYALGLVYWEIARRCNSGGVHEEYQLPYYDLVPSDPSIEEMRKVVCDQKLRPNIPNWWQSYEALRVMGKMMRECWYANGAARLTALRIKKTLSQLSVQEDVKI
Chain of UniProt Q9HC98 (whole entry, looked up): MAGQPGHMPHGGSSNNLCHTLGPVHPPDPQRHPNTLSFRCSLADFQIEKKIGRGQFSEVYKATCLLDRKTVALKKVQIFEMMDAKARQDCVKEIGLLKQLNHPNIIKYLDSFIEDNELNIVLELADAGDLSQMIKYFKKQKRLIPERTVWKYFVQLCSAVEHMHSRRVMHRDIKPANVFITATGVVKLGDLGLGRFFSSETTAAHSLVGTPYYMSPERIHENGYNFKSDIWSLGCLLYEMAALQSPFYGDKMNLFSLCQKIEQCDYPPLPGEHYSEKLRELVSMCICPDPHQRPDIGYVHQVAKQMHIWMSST
Chain of UniProt Q8NGU9 (whole entry, looked up): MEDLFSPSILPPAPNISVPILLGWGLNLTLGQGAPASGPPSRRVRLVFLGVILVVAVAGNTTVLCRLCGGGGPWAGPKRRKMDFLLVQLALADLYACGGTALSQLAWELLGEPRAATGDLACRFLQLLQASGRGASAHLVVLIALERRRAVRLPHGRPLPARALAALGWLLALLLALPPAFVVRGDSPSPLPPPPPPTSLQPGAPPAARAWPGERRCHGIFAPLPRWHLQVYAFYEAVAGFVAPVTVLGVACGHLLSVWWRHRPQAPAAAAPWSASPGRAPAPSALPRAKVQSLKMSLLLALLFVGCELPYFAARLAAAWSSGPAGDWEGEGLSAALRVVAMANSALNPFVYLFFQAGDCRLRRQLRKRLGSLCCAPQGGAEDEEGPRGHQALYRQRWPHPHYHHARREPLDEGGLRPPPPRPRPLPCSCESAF
Chain of UniProt O75582 (whole entry, looked up): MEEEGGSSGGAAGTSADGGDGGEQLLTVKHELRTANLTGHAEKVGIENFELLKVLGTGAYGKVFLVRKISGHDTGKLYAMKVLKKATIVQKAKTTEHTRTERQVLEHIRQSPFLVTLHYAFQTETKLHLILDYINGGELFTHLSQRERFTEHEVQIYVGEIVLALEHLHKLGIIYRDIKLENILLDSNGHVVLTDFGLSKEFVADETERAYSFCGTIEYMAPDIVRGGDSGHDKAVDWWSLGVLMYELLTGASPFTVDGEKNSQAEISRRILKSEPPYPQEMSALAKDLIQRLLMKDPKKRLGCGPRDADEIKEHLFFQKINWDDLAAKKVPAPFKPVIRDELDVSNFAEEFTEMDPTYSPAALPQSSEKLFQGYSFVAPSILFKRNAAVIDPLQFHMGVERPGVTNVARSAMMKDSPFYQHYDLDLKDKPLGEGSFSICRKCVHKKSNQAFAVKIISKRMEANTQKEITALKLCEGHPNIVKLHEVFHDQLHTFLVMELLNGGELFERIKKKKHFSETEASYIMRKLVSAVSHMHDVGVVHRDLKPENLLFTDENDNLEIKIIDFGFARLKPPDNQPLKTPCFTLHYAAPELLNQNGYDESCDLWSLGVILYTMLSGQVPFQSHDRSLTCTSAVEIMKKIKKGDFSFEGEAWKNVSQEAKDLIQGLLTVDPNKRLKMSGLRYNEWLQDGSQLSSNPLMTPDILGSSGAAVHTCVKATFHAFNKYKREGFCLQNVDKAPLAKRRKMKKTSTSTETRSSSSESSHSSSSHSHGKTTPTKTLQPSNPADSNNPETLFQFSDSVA
Chain of UniProt Q9UEE5 (whole entry, looked up): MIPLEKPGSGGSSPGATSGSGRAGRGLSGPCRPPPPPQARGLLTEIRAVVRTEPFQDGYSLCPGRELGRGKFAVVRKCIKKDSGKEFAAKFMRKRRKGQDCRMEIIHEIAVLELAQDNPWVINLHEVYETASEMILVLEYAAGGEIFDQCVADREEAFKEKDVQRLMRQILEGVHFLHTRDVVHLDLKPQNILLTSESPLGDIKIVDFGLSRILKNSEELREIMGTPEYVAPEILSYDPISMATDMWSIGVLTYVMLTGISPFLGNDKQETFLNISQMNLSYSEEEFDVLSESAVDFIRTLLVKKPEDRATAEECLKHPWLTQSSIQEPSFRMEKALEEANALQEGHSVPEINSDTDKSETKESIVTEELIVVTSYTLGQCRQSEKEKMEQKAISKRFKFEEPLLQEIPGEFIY
Chain of UniProt O15530 (whole entry, looked up): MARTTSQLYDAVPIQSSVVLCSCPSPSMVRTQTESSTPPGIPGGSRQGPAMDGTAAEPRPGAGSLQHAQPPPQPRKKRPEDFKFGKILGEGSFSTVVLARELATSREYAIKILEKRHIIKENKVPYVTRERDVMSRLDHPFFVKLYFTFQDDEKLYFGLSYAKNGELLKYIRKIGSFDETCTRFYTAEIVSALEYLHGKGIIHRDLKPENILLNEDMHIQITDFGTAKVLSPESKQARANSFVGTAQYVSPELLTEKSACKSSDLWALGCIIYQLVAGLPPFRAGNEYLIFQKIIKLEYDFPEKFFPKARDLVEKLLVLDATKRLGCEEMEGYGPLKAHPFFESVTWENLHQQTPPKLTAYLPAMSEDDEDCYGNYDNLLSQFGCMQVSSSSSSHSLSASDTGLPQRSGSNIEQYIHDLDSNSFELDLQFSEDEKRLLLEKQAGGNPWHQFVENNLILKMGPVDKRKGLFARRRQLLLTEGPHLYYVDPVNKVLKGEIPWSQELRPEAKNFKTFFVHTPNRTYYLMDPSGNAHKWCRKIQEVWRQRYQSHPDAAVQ

Study 1
Compound: CC(C)S(=O)(=O)c1ccc2nccc(Nc3ccc4sc(C5CCCC5)nc4c3)c2c1.Cl
Read-out: kinase activity
Mode: inhibitor
Tested at: 1 µM
Measurement: remaining activity
target = STK26 (Homo sapiens, UniProt Q9P289); result = 83%
target = MARK4 (Homo sapiens, UniProt Q96L34); result = 94%
target = LRRK2 (Homo sapiens, UniProt Q5S007); result = 113%
target = CLK1 (Homo sapiens, UniProt P49759); result = 105%
target = STK4 (Homo sapiens, UniProt Q13043); result = 99%
target = IKBKE (Homo sapiens, UniProt Q14164); result = 106%
target = CDC42BPG (Homo sapiens, UniProt Q6DT37); result = 104%
target = CLK3 (Homo sapiens, UniProt P49761); result = 105%
target = PRKD1 (Homo sapiens, UniProt Q15139); result = 110%
target = PRKCB (Homo sapiens, UniProt P05771); result = 101%
target = ATM (Homo sapiens, UniProt Q13315); result = 99%
target = EPHA3 (Homo sapiens, UniProt P29320); result = 131%
target = CDC42BPB (Homo sapiens, UniProt Q9Y5S2); result = 111%
target = PLK4 (Homo sapiens, UniProt O00444); result = 96%
target = PAK2 (Homo sapiens, UniProt Q13177); result = 93%
target = FGFR3 (Homo sapiens, UniProt P22607); result = 92%
target = NEK6 (Homo sapiens, UniProt Q9HC98); result = 93%

Study 2
SMILES: COc1cc2c(Nc3ccc(Br)cc3F)ncnc2cc1OCC1CCN(C)CC1
Read-out: enzyme activity
Mode: inhibitor
Tested at: 0.5 µM
Baseline: control
Measurement: remaining activity
target = PDPK1 (Homo sapiens, UniProt O15530); result = 91.3%
target = TSSK2 (Homo sapiens, UniProt Q96PF2); result = 95.9%
target = MAPKAPK3 (Homo sapiens, UniProt Q16644); result = 98.5%
target = BLK (Homo sapiens, UniProt P51451); result = 33.8%
target = STK16 (Homo sapiens, UniProt O75716); result = 101%
target = Cyclin-dependent kinase 4, with cyclin D3 (CDK4, Homo sapiens, UniProt P11802); result = 101%
target = PRKACG (Homo sapiens, UniProt P22612); result = 106%
target = SRMS (Homo sapiens, UniProt Q9H3Y6); result = 98.8%
target = DYRK3 (Homo sapiens, UniProt O43781); result = 96%
target = RPS6KA5 (Homo sapiens, UniProt O75582); result = 101%
target = Cyclin-dependent kinase 1, with cyclin B (CDK1, Homo sapiens, UniProt P06493); result = 102%
target = MAP4K4 (Homo sapiens, UniProt O95819); result = 79.8%
target = WNK3 (Homo sapiens, UniProt Q9BYP7); result = 98%
target = STK17A (Homo sapiens, UniProt Q9UEE5); result = 92.4%
target = PHKG1 (Homo sapiens, UniProt Q16816); result = 55.5%
target = CAMK2B (Homo sapiens, UniProt Q13554); result = 98.2%
target = HIPK4 (Homo sapiens, UniProt Q8NE63); result = 100%
target = RPS6KA6 (Homo sapiens, UniProt Q9UK32); result = 99.3%
target = EPHB1 (Homo sapiens, UniProt P54762); result = 27.8%
target = HIPK2 (Homo sapiens, UniProt Q9H2X6); result = 99.4%

Study 3
Compound: NS(=O)(=O)c1cc(NC(=O)C2(c3ccccc3Cl)CC2)ccc1Oc1cccc(Cl)c1
Read-out: cell-free assay
Technique: competition with immobilised ligand
Tested at: 1 µM
Measurement: remaining binding
target = BMPR1B (Homo sapiens, UniProt O00238); result = 81%
target = BMPR2 (Homo sapiens, UniProt Q13873); result = 100%
target = MAP3K4 (Homo sapiens, UniProt Q9Y6R4); result = 94%
target = DYRK1B (Homo sapiens, UniProt Q9Y463); result = 86%
target = STK16 (Homo sapiens, UniProt O75716); result = 100%
target = PIK3CA (Homo sapiens, UniProt P42336, E542K); result = 80%
target = ERN1 (Homo sapiens, UniProt O75460); result = 61%
target = SBK1 (Homo sapiens, UniProt Q52WX2); result = 100%
target = CHUK (Homo sapiens, UniProt O15111); result = 100%
target = MELK (Homo sapiens, UniProt Q14680); result = 96%
target = CSNK1D (Homo sapiens, UniProt P48730); result = 83%
target = EPHA7 (Homo sapiens, UniProt Q15375); result = 82%
target = STK10 (Homo sapiens, UniProt O94804); result = 69%
target = EGFR (Homo sapiens, UniProt P00533, del747-750/T751S); result = 75%
target = STK36 (Homo sapiens, UniProt Q9NRP7); result = 99%
target = CDC42BPB (Homo sapiens, UniProt Q9Y5S2); result = 62%
target = CDK13 (Homo sapiens, UniProt Q14004); result = 100%
target = MYLK4 (Homo sapiens, UniProt Q86YV6); result = 94%
target = EGFR (Homo sapiens, UniProt P00533, L858R); result = 79%
target = CSNK2A2 (Homo sapiens, UniProt P19784); result = 100%
target = SIK2 (Homo sapiens, UniProt Q9H0K1); result = 100%
target = ACVR1B (Homo sapiens, UniProt P36896); result = 89%
target = PRKD3 (Homo sapiens, UniProt O94806); result = 85%
target = Tyrosine-protein kinase ABL1, non-phosphorylated (ABL1, Homo sapiens, UniProt P00519, F317L); result = 88%
target = Receptor-type tyrosine-protein kinase FLT3, autoinhibited (FLT3, Homo sapiens, UniProt P36888); result = 70%

Study 4
SMILES: CC(C)CN(C)c1nc(N)c(C(=O)N=C(N)N)nc1Cl
Mode: agonist
Tested at: 10 µM
Baseline: untreated
Measurement: fold over basal
target = Secretin receptor (SCTR, Homo sapiens, UniProt P47872); test = β-arrestin recruitment, PRESTO-Tango; result = 1.08
target = GPR4 (Homo sapiens, UniProt P46093); test = β-arrestin recruitment, PRESTO-Tango; result = 1.16
target = PRLHR (Homo sapiens, UniProt P49683); test = β-arrestin recruitment, PRESTO-Tango; result = 0.99
target = GPR52 (Homo sapiens, UniProt Q9Y2T5); test = β-arrestin recruitment, PRESTO-Tango; result = 0.98
target = EDNRB (Homo sapiens, UniProt P24530); test = β-arrestin recruitment, PRESTO-Tango; result = 0.89
target = FFAR1 (Homo sapiens, UniProt O14842); test = β-arrestin recruitment, PRESTO-Tango; result = 1.26 fold
target = PTGER4 (Homo sapiens, UniProt P35408); test = β-arrestin recruitment, PRESTO-Tango; result = 0.79
target = P2Y purinoceptor 6 (P2RY6, Homo sapiens, UniProt Q15077); test = β-arrestin recruitment, PRESTO-Tango; result = 1.63
target = Probable G-protein coupled receptor 150 (GPR150, Homo sapiens, UniProt Q8NGU9); test = β-arrestin recruitment, PRESTO-Tango; result = 1.85
target = GPR32 (Homo sapiens, UniProt O75388); test = β-arrestin recruitment, PRESTO-Tango; result = 1.15
target = Adhesion G protein-coupled receptor A2 (ADGRA2, Homo sapiens, UniProt Q96PE1); test = β-arrestin recruitment, PRESTO-Tango; result = 0.85
target = S1PR5 (Homo sapiens, UniProt Q9H228); test = β-arrestin recruitment, PRESTO-Tango; result = 0.68
target = PTGIR (Homo sapiens, UniProt P43119); test = β-arrestin recruitment, PRESTO-Tango; result = 0.66
target = MCHR2 (Homo sapiens, UniProt Q969V1); test = β-arrestin recruitment, PRESTO-Tango; result = 0.94
target = SSTR5 (Homo sapiens, UniProt P35346); test = β-arrestin recruitment, PRESTO-Tango; result = 0.76 fold
target = G-protein coupled receptor 22 (GPR22, Homo sapiens, UniProt Q99680); test = β-arrestin recruitment, PRESTO-Tango; result = 0.67
target = CASR (Homo sapiens, UniProt P41180); test = β-arrestin recruitment, PRESTO-Tango; result = 0.56
target = PTGER1 (Homo sapiens, UniProt P34995); test = β-arrestin recruitment, PRESTO-Tango; result = 1.26
target = NPY5R (Homo sapiens, UniProt Q15761); test = PRESTO-Tango arrestin recruitment; result = 7.03
target = GRM5 (Homo sapiens, UniProt P41594); test = β-arrestin recruitment, PRESTO-Tango; result = 0.73 fold

A few entries again (study 3):
target = CHUK (Homo sapiens, UniProt O15111); result = 100%
target = CSNK1D (Homo sapiens, UniProt P48730); result = 83%
target = SBK1 (Homo sapiens, UniProt Q52WX2); result = 100%
target = ACVR1B (Homo sapiens, UniProt P36896); result = 89%
target = STK16 (Homo sapiens, UniProt O75716); result = 100%
target = EGFR (Homo sapiens, UniProt P00533, del747-750/T751S); result = 75%
target = EPHA7 (Homo sapiens, UniProt Q15375); result = 82%
target = BMPR2 (Homo sapiens, UniProt Q13873); result = 100%
